Published values from different studies.
Lines come from different studies, so protocols differ. Numbers after ± are the reported error.

Compound | test | test system | setting | tissue uptake
O=C([O-])CN1CCN(CC(=O)[O-])CCN(CC(=O)NC[C@H]2CC[C@H](C(=O)N[C@H](Cc3cnc4ccccc4c3)C(=O)NCCCC[C@H](NC(=O)N[C@@H](CCC(=O)O)C(=O)O)C(=O)O)CC2)CCN(CC(=O)[O-])CC1.[64Cu+2] | ex vivo gamma counting | 22Rv1 tumour-bearing mice, tumor | intravenous, 0.74 MBq, 6 h | 17.8 ± 3.6 %ID/g
CC(F)C(=O)NC[C@@H]1O[C@H](C(=O)NCCCC[C@@H]2NC(=O)[C@@H](Cc3ccccc3)NC(=O)[C@H](CC(=O)O)NC(=O)CNC(=O)[C@H](CCCNC(=N)N)NC2=O)[C@H](O)[C@H](O)[C@H]1O (stereo partly drawn) [fluorine-18 labelled] | small-animal PET | female athymic nude mice, U-87 MG xenograft, liver | intravenous, 3.7 MBq, 60 min | 0.2 ± 0.02 %ID/g
CCCC[C@H](NC(=O)CNC(=O)CNC(=O)CN1CCN(CC(=O)O)CCN(CC(=O)O)CC1)C(=O)N[C@H]1CC(=O)NCCCC[C@@H](C(N)=O)NC(=O)[C@H](Cc2c[nH]c3ccccc23)NC(=O)[C@H](CCCNC(=N)N)NC(=O)[C@@H](Cc2ccccc2)NC(=O)[C@H](Cc2c[nH]cn2)NC1=O [gallium-67 labelled] |  | female C57 mice, B16/F1 melanoma, tumor | intravenous, 0.037 MBq, 4 h | 18.2 ± 4.89 %ID/g
CC(C)[C@H](NC(=O)[C@@H]1CCCN1C(=O)[C@H](CCCNC(=N)N)NC(=O)[C@H](CS)NC(=O)[C@H](Cc1c[nH]c2ccccc12)NC(=O)[C@H](CCCNC(=N)N)NC(=O)[C@@H](Cc1ccccc1)NC(=O)[C@H](Cc1c[nH]cn1)NC(=O)[C@H](CCC(=O)O)NC(=O)[C@H](CS)NC(=O)[C@H](CS)NC(=O)CNC(=O)[C@@H]1CC(=O)N[C@@H](CCCNC(=N)N)C(=O)NCC(=O)N[C@@H](CC(=O)O)C(=O)N[C@H](Cc2ccc(O)cc2)C(=O)N1)C(N)=O [technetium-99m labelled] |  | C57 mice B16/F1 melanoma female, intestines | iv, 0.037 MBq, 0.5 h | 3.41 ± 0.23 %ID
NC12CNCCNCC(NCc3ccc(CNC(=O)CCCC(=O)NCc4ccc(-c5nncnn5)cc4)cc3)(CNCCNC1)CNCCNC2.[64Cu+2] |  | athymic nude mice, SW1222 xenograft, blood | 24 h post-injection, 24 h pretargeting interval, added: huA33-TCO pretargeting | 2.61 ± 0.2 %ID/g
O=C([O-])c1cccc(CN(CCN(Cc2cn(Cc3ccccc3)nn2)Cc2cccc(C(=O)[O-])n2)Cc2cn(Cc3ccccc3)nn2)n1.[64Cu+2] |  | healthy athymic nude mice, skin | intravenous, 24 h | 1.04 %ID/g
CN1C(=O)[C@@H](Cc2ccc(O)c(I)c2)NC(=O)CNC(=O)[C@H](Cc2ccc3ccccc3c2)NC(=O)[C@H](CCCNC(=N)N)NC(=O)[C@H]1CCCNC(=O)c1ccc(CNC(=O)CN2CCN(CC(=O)O)CCN(CC(=O)O)CCN(CC(=O)O)CC2)cc1 [lutetium-177 labelled] | refers to: 177Lu radioactivity | female CB-17 SCID mice, Daudi xenograft, lung | intravenous, 0.16 nmol per mouse, 6 h | 0.42 ± 0.06 %ID/g
N=C(N)NCCC[C@H](NC(=O)[C@@H]1CSSC[C@H](NC(=O)[C@H](Cc2ccc3ccccc3c2)NC(=O)[C@H](CCCNC(=N)N)NC(=O)[C@H](CCCNC(=N)N)NC(=S)Nc2ccc(C[C@H]3CN(CC(=O)O)CCN(CC(=O)O)CCN3CC(=O)O)cc2)C(=O)N[C@@H](Cc2ccc(O)cc2)C(=O)N[C@@H](CCCNC(N)=O)C(=O)N[C@@H](CCCCN)C(=O)N[C@H](CCCCN)C(=O)N2CCC[C@H]2C(=O)N[C@@H](Cc2ccc(O)cc2)C(=O)N[C@@H](CCCNC(=N)N)C(=O)N[C@@H](CCCNC(N)=O)C(=O)N1)C(N)=O [copper-64 labelled] |  | female athymic nude mice, blood | intravenous, 50 µCi, 4 h | 0.12 ± 0.01 %ID/g
CCCC[C@H](NC(=O)CNC(=O)CNC(=O)CN1CCN(CC(=O)O)CCN(CC(=O)O)CCN(CC(=O)O)CC1)C(=O)N[C@H]1CC(=O)NCCCC[C@@H](C(N)=O)NC(=O)[C@H](Cc2c[nH]c3ccccc23)NC(=O)[C@H](CCCNC(=N)N)NC(=O)[C@@H](Cc2ccccc2)NC(=O)[C@H](Cc2c[nH]cn2)NC1=O [lead-203 labelled] |  | C57 mice with metastatic melanoma, lung | intravenous, 0.056 MBq, 2 h | 7.32 ± 2.13 %ID/g
N=C(N)NCCC[C@@H]1NC(=O)[C@H](CCCCNC(=O)CC[C@H](NC(=O)[C@H]2O[C@@H](CNC(=O)c3ccc(F)cc3)[C@H](O)[C@@H](O)[C@H]2O)C(=O)NCCCC[C@@H]2NC(=O)[C@@H](Cc3ccc(O)cc3)NC(=O)[C@H](CC(=O)O)NC(=O)CNC(=O)[C@H](CCCNC(=N)N)NC2=O)NC(=O)[C@@H](Cc2ccc(O)cc2)NC(=O)[C@H](CC(=O)O)NC(=O)CNC1=O [fluorine-18 labelled] | small-animal PET | female athymic nude mice, U-87 MG xenograft, muscle | intravenous, 3.7 MBq, 120 min | 0.18 ± 0.06 %ID/g
N=C(N)NCCC[C@H](NC(=O)[C@@H]1CSSC[C@H](NC(=O)[C@H](Cc2ccc3ccccc3c2)NC(=O)[C@H](CCCNC(=N)N)NC(=O)[C@H](CCCNC(=N)N)NC(=O)CN2CCN(CC(=O)O)CCN(CC(=O)O)CCN(CC(=O)O)CC2)C(=O)N[C@@H](Cc2ccc(O)cc2)C(=O)N[C@@H](CCCNC(N)=O)C(=O)N[C@@H](CCCCN)C(=O)N[C@H](CCCCN)C(=O)N2CCC[C@H]2C(=O)N[C@@H](Cc2ccc(O)cc2)C(=O)N[C@@H](CCCNC(=N)N)C(=O)N[C@@H](CCCNC(N)=O)C(=O)N1)C(N)=O [copper-64 labelled] | PET | tumour-bearing mice, kidney | 100 µCi, 24 h | 22.4 ± 4.7 %ID/g
CCCC[C@H](NC(=O)CNC(=O)CNC(=O)CN1CCN(CC(=O)O)CCN(CC(=O)O)CCN(CC(=O)O)CC1)C(=O)N[C@H]1CC(=O)NCCCC[C@@H](C(N)=O)NC(=O)[C@H](Cc2c[nH]c3ccccc23)NC(=O)[C@H](CCCNC(=N)N)NC(=O)[C@@H](Cc2ccccc2)NC(=O)[C@H](Cc2c[nH]cn2)NC1=O [gallium-67 labelled] |  | female C57 mice, B16/F1 melanoma, brain | intravenous, 0.037 MBq, 4 h | 0.08 ± 0.03 %ID/g
CC(F)C(=O)NC[C@@H]1O[C@H](C(=O)NCCCC[C@@H]2NC(=O)[C@@H](Cc3ccc(O)cc3)NC(=O)[C@H](CC(=O)O)NC(=O)CNC(=O)[C@H](CCCNC(=N)N)NC2=O)[C@H](O)[C@H](O)[C@H]1O (stereo partly drawn) [fluorine-18 labelled] | small-animal PET | female athymic nude mice, U-87 MG xenograft, muscle | intravenous, 3.7 MBq, 60 min | 0.1 ± 0.02 %ID/g
N=C(N)NCCC[C@H](NC(=O)CON=C[C@H](F)[C@@H](O)[C@H](O)[C@H](O)CO)C(=O)NCC(=O)N[C@@H](CC(=O)O)C(=O)O [fluorine-18 labelled] |  | nude mice U-87 MG tumour, bone | intravenous, 2 h | 0.23 ± 0.2 %ID/g
O=C([O-])CN1CCN(CC(=O)[O-])CCN(CC(=O)[O-])CCN(CC(=O)[O-])CC1.[64Cu+2] |  | nude athymic mice, healthy, femur | intravenous, 1 h, 64Cu label | 0.45 %ID/g
N=C(N)NCCC[C@@H]1NC(=O)[C@H](CCCCNC(=O)CON=C[C@H](F)[C@@H](O)[C@H](O)[C@H](O)CO)NC(=O)[C@@H](Cc2ccc(O)cc2)NC(=O)[C@H](CC(=O)O)NC(=O)CNC1=O [fluorine-18 labelled] |  | nude mice U-87 MG tumour, blood | intravenous, 0.5 h | 2.04 ± 2.28 %ID/g
CCCC[C@@H]1NC(=O)[C@@H](NC(=O)[C@H](CCC(=O)O)NC(=O)CNC(=O)CN2CCN(CC(=O)O)CCN(CC(=O)O)CCN(CC(=O)O)CC2)CCCCNC(=O)C[C@@H](C(N)=O)NC(=O)[C@H](C(C)C)NC(=O)[C@@H]2CCCN2C(=O)[C@H](CCCNC(=N)N)NC(=O)CNC(=O)[C@H](Cc2c[nH]c3ccccc23)NC(=O)[C@H](CCCNC(=N)N)NC(=O)[C@@H](Cc2ccccc2)NC(=O)[C@H](Cc2c[nH]cn2)NC(=O)[C@H](CCC(=O)O)NC1=O [gallium-67 labelled] |  | C57 mice, B16/F1 flank melanoma, skin | intravenous, 0.037 MBq/mouse, 0.5 h | 1.62 ± 0.54 %ID/g
CC(F)C(=O)NC[C@@H]1O[C@H](C(=O)N[C@@H](CCC(=O)NCCCC[C@@H]2NC(=O)[C@@H](Cc3ccc(O)cc3)NC(=O)[C@H](CC(=O)O)NC(=O)CNC(=O)[C@H](CCCNC(=N)N)NC2=O)C(=O)NCCCC[C@@H]2NC(=O)[C@@H](Cc3ccc(O)cc3)NC(=O)[C@H](CC(=O)O)NC(=O)CNC(=O)[C@H](CCCNC(=N)N)NC2=O)[C@H](O)[C@H](O)[C@H]1O (stereo partly drawn) [fluorine-18 labelled] | small-animal PET | female athymic nude mice, U-87 MG xenograft, kidney | intravenous, 3.7 MBq, 60 min | 2.48 ± 0.63 %ID/g

Excerpt of the above:
Compound | test | test system | setting | tissue uptake
CC(F)C(=O)NC[C@@H]1O[C@H](C(=O)NCCCC[C@@H]2NC(=O)[C@@H](Cc3ccc(O)cc3)NC(=O)[C@H](CC(=O)O)NC(=O)CNC(=O)[C@H](CCCNC(=N)N)NC2=O)[C@H](O)[C@H](O)[C@H]1O (stereo partly drawn) [fluorine-18 labelled] | small-animal PET | female athymic nude mice, U-87 MG xenograft, muscle | intravenous, 3.7 MBq, 60 min | 0.1 ± 0.02 %ID/g
